Measurements collected from several papers.
Every numbered part comes from another study and shows a few of its results, in no order.
Sequence of UniProt Q9NQU5 (whole entry, looked up): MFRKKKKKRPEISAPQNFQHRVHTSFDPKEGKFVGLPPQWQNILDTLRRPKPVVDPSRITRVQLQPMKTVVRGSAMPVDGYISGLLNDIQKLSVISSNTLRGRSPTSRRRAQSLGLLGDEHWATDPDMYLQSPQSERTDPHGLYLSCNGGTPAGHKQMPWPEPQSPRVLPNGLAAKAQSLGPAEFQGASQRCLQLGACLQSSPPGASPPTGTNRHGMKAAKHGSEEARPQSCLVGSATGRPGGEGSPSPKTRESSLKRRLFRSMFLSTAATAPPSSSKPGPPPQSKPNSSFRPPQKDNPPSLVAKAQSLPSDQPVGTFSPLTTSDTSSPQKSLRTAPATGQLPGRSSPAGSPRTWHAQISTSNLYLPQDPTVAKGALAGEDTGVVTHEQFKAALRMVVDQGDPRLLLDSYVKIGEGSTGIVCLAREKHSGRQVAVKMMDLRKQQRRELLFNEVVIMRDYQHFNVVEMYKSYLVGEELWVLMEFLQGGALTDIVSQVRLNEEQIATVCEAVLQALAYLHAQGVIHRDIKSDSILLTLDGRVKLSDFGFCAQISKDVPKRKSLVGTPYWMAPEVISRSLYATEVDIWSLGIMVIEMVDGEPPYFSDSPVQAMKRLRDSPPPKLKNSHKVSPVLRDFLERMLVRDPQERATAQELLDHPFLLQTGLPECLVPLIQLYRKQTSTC
Sequence of UniProt P21127 (whole entry, looked up): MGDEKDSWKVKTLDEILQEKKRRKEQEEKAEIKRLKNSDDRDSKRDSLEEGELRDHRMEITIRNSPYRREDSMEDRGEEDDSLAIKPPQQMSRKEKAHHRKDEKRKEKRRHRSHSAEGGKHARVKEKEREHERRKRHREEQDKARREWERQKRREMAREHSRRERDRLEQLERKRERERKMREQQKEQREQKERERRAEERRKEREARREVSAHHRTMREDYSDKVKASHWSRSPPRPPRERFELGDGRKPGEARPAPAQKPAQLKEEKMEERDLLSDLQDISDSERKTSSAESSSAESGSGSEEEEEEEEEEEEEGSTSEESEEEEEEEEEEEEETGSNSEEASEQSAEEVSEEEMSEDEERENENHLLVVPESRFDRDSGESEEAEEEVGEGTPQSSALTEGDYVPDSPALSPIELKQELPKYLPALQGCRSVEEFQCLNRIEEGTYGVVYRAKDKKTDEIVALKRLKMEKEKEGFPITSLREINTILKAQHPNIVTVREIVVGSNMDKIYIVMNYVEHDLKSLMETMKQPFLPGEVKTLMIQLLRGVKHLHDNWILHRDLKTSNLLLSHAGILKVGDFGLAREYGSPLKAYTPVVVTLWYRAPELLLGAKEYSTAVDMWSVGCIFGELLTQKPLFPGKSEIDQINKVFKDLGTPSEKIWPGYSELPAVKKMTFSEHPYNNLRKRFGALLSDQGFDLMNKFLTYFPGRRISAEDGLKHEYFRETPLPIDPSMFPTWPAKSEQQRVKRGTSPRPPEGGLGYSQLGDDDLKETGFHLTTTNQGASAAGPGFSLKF
Sequence of UniProt Q9HBH9 (whole entry, looked up): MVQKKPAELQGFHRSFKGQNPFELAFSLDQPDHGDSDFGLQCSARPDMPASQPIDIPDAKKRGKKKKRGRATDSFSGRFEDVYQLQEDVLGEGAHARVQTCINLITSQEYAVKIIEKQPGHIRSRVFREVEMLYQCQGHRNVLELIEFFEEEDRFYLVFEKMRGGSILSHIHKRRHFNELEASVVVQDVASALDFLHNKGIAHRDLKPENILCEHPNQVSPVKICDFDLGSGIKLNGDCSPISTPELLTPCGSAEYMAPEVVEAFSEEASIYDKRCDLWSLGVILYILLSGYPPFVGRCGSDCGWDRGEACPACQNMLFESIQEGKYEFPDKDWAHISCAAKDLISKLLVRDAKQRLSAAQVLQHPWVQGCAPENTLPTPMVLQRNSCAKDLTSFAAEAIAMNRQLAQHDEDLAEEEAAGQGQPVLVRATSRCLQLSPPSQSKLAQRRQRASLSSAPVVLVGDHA
Sequence of UniProt Q02156 (whole entry, looked up): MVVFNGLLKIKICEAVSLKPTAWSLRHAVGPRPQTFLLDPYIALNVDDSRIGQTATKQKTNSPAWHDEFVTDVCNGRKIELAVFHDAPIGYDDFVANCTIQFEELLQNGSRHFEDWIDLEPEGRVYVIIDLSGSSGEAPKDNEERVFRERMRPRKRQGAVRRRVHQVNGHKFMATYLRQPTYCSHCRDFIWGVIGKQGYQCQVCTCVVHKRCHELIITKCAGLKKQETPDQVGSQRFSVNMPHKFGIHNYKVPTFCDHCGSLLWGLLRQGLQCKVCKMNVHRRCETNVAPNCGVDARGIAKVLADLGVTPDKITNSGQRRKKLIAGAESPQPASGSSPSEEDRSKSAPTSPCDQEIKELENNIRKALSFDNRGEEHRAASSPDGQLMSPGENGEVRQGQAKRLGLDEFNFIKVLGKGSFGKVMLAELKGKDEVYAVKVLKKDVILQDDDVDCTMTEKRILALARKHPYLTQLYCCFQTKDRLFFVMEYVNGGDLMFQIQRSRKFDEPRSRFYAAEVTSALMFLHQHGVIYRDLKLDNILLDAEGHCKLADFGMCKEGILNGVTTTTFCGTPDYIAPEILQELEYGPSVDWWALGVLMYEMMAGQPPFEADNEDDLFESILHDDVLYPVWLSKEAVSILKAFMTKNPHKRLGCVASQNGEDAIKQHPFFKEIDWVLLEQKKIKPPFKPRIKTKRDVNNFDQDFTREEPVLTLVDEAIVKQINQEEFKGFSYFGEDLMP
Sequence of UniProt P52564 (whole entry, looked up): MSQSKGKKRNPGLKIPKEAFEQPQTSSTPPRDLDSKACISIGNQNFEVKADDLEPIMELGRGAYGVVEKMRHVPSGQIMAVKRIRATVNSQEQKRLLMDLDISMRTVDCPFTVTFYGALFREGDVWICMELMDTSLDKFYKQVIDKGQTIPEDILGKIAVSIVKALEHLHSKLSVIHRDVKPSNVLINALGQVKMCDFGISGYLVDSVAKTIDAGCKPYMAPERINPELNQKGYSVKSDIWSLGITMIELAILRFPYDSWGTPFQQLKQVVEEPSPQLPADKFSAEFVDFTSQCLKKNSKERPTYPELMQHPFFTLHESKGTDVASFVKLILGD
Sequence of UniProt P51813 (whole entry, looked up): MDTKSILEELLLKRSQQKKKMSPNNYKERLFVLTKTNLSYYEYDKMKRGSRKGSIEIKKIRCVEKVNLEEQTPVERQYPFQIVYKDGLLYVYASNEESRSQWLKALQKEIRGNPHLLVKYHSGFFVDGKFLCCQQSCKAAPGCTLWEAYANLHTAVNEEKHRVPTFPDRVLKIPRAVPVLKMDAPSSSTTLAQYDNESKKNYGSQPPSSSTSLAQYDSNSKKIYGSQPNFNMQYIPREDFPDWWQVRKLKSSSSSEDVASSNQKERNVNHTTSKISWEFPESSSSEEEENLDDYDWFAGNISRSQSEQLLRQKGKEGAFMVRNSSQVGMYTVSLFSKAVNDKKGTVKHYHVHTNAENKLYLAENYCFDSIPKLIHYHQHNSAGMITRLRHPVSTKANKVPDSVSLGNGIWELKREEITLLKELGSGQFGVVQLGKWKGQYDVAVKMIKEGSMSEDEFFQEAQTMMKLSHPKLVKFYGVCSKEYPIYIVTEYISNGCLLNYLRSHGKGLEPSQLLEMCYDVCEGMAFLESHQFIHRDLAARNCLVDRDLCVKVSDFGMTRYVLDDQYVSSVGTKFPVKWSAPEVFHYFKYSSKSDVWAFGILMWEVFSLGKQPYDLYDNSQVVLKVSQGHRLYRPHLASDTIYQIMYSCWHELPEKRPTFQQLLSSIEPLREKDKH
Sequence of UniProt P50613 (whole entry, looked up): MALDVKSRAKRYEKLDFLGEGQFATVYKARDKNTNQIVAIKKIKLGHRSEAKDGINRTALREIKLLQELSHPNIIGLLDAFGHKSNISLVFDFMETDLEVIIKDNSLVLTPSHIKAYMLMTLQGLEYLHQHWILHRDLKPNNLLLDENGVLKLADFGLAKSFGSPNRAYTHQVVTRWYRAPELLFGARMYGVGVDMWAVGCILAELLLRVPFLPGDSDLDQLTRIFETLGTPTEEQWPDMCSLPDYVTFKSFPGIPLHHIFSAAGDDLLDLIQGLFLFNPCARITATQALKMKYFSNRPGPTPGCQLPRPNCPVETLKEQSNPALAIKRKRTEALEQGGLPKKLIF
Sequence of UniProt Q86YV6 (whole entry, looked up): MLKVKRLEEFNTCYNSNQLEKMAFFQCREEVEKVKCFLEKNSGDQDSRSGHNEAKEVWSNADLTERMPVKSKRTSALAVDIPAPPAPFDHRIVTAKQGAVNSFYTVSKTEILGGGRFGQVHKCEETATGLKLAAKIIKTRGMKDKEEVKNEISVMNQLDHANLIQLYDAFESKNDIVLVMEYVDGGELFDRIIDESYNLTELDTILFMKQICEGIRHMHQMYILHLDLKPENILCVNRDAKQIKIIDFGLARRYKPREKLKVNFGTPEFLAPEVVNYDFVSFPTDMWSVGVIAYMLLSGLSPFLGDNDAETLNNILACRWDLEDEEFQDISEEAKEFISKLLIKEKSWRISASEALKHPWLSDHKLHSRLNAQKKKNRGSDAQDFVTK
Sequence of UniProt Q9UPE1 (whole entry, looked up): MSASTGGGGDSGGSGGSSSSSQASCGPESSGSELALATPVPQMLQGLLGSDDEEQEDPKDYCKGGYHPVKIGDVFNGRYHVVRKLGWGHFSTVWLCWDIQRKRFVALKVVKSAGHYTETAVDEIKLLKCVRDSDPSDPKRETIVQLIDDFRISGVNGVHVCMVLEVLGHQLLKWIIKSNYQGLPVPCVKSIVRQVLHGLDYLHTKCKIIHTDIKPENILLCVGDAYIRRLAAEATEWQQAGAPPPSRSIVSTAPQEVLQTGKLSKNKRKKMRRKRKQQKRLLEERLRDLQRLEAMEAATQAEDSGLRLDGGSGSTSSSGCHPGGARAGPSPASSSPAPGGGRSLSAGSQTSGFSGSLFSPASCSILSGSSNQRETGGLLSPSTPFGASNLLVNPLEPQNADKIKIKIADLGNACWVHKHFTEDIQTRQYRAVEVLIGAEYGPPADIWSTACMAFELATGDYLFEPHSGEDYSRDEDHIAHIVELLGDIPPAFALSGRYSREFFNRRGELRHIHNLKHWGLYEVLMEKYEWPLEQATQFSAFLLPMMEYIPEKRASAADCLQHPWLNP

Block 1
Structure (SMILES): Oc1cccc(-c2nc(N3CCOCC3)c3oc4ncccc4c3n2)c1
Effect on: enzyme activity
Mode: inhibitor
Tested at: 0.5 µM
Relative to: control
Measurement: remaining activity
Ephrin type-A receptor 7 (EPHA7, Homo sapiens, UniProt Q15375): 93.9%
G protein-coupled receptor kinase 6 (GRK6, Homo sapiens, UniProt P43250): 98.2%
Protein kinase C epsilon type (PRKCE, Homo sapiens, UniProt Q02156): 100%
Fibroblast growth factor receptor 4 (FGFR4, Homo sapiens, UniProt P22455): 102%
Beta-adrenergic receptor kinase 1 (GRK2, Homo sapiens, UniProt P25098): 107%
Ephrin type-B receptor 2 (EPHB2, Homo sapiens, UniProt P29323): 88.6%
SRSF protein kinase 3 (SRPK3, Homo sapiens, UniProt Q9UPE1): 95%
Ribosomal protein S6 kinase alpha-1 (RPS6KA1, Homo sapiens, UniProt Q15418): 79.5%
Cytoplasmic tyrosine-protein kinase BMX (BMX, Homo sapiens, UniProt P51813): 101%

Block 2
Structure (SMILES): CCCOc1ccc([C@H]2[C@H](C(=O)O)[C@@H](c3ccc4c(c3)OCO4)CN2CC(=O)Nc2c(CC)cccc2CC)cc1
Effect on: cell-free assay
Method: competition with immobilised ligand
Tested at: 1 µM
Measurement: remaining binding
Casein kinase I isoform gamma-2 (CSNK1G2, Homo sapiens, UniProt P78368): 100%
Insulin receptor (INSR, Homo sapiens, UniProt P06213): 74%
Phosphatidylinositol 4-phosphate 3-kinase C2 domain-containing subunit beta (PIK3C2B, Homo sapiens, UniProt O00750): 92%
eIF-2-alpha kinase GCN2, C-terminal kinase domain (EIF2AK4, Homo sapiens, UniProt Q9P2K8, S808G): 90%
Myosin light chain kinase family member 4 (MYLK4, Homo sapiens, UniProt Q86YV6): 75%
Serine/threonine-protein kinase B-raf (BRAF, Homo sapiens, UniProt P15056): 80%
Dual specificity mitogen-activated protein kinase kinase 6 (MAP2K6, Homo sapiens, UniProt P52564): 100%
5'-AMP-activated protein kinase catalytic subunit alpha-2 (PRKAA2, Homo sapiens, UniProt P54646): 100%
Serine/threonine-protein kinase DCLK3 (DCLK3, Homo sapiens, UniProt Q9C098): 100%
Cyclin-dependent kinase 11B (CDK11B, Homo sapiens, UniProt P21127): 100%
Leucine-rich repeat serine/threonine-protein kinase 2 (LRRK2, Homo sapiens, UniProt Q5S007, G2019S): 91%
Calcium/calmodulin-dependent protein kinase type 1G (CAMK1G, Homo sapiens, UniProt Q96NX5): 90%
Serine/threonine-protein kinase PAK 6 (PAK6, Homo sapiens, UniProt Q9NQU5): 68%
Rho-associated protein kinase 2 (ROCK2, Homo sapiens, UniProt O75116): 69%
Serine/threonine-protein kinase NLK (NLK, Homo sapiens, UniProt Q9UBE8): 100%

Block 3
SMILES: O=C(Nc1cnn(-c2csc(C(=O)NC3COC3)c2)c1)Nc1c(F)cccc1Cl
Effect on: enzyme activity
Tested at: 5 µM
Relative to: untreated control
Measurement: remaining activity
Death-associated protein kinase 2 (DAPK2, Homo sapiens, UniProt Q9UIK4): 97.7%
Serine/threonine-protein kinase MRCK gamma (CDC42BPG, Homo sapiens, UniProt Q6DT37): 115%
MAP kinase-interacting serine/threonine-protein kinase 2 (MKNK2, Homo sapiens, UniProt Q9HBH9): 90.7%
Interleukin-1 receptor-associated kinase 1 (IRAK1, Homo sapiens, UniProt P51617): 106%
SNF-related serine/threonine-protein kinase (SNRK, Homo sapiens, UniProt Q9NRH2): 94.5%
Cyclin-dependent kinase 7 (CDK7, Homo sapiens, UniProt P50613): 94.9%

Block 4
Compound: CC(C)n1cnc(-c2ccc(F)cc2)c1-c1ncc(C(=O)Nc2ccc(N3CCN(C)CC3)cc2)[nH]1
Method: Phase 2a trial
Host: idiopathic pulmonary fibrosis patients
Measurement: patients with adverse events
item: back pain; 30 mg once daily, grade 4 maximum intensity: 0%
item: blood creatine phosphokinase increased; 60 mg once daily, grade 3 maximum intensity: 0%
item: back pain; dose not given, grade 5 maximum intensity, all arms: 0%
item: bile acids increased; 60 mg once daily, grade 3 maximum intensity: 0%
item: infections and infestations; 30 mg once daily, grade 4 maximum intensity: 0%
item: bile acids increased; dose not given, grade 3 maximum intensity, all arms: 0%
item: blood bilirubin increased; dose not given, grade 3 maximum intensity, all arms: 0%
item: weight increased; 30 mg once daily, grade 2 maximum intensity: 0%
item: infections and infestations; 30 mg once daily, grade 5 maximum intensity: 0%
item: tri-iodothyronine increased; dose not given, grade 4 maximum intensity, all arms: 0%
item: gamma-glutamyltransferase increased; 60 mg once daily, grade 3 maximum intensity: 0%
